Published values gathered from unrelated publications.
A part holds a random share of what one study measured.

Series 1
Target: Hepatocyte nuclear factor 3-alpha (Foxa1, Mus musculus, UniProt P35582, residues 1-468, full length assumed)
Method: EMSA with sequencing
Form: double-stranded DNA, one strand shown
Sample: in vitro
Concentration: 10 and 20 nM
Notes: whole designed probe, mean of two concentrations, ends assumed
Relative to: negative control set to 0
Reading: higher = stronger binding
All sequences stand within: GTGAGCGGTGCCCATTGATGGGGAAC … TTTCACTGGGATCGTGGGGAC
Construct (chain): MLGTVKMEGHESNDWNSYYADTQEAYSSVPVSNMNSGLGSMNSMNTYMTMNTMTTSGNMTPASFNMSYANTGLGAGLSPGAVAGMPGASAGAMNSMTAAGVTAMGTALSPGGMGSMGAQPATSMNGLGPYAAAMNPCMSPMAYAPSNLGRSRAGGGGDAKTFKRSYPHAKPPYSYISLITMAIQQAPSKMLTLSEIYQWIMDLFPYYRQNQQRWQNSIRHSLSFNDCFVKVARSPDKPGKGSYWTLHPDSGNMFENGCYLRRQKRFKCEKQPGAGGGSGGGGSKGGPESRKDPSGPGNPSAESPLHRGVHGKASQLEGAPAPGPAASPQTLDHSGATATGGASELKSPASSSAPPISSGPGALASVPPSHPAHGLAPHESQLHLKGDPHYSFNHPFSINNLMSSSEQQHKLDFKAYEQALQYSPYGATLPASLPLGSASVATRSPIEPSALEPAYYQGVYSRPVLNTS
Oligonucleotide	normalised bound fraction [ratio]
ATATCTGCTTTGCCTTATAAGATGAGAATTAAACATATTATTAGTTAAACTTGGCTAAATTCTATGCAGTAATAGATAACCCCAAAACCTCTATGTAAACATAAAGTTATTCCCCGATAAAGCAATTTACTGTGGGCCTGGCAACTCTTTCATGCAGCCTTCTTGCTGATCACAGCTAATGGAGACATCGTCA	0.475
ATCTTCCCCCTCTTCCTTGCCCCACCAGCTCACCTTCCCGGGTTATTTGCAGATAGGAAAATAAATAAAGCCGGCATTCGTTAACCCTCTTCACGCGCATACTGCTGTTTGCTCTGCATGAATCATGGTCCTTACGCGACGCCAGGCTCCGGGAGAGCAAAGCACCGTGTCAGGCGCATGATCCGGGGTGGCC	0.356
TTCATCAGTCTATGCAAGTAAATGTTAACATTCCATGTCCTGTGACAGCTTGGGTGAGAGCTGTAATTTATTGGGTTGGAGGGGGGTTGTGGTTATTTGCATTGTGTAAGCTAAGCCTCATTCTTAACACAGAAAAAAGAATGCTACACAACACCAAAAAGGCTAAAATTTGTTTTGCATTATAAATAACAGA	0.304
TATTTTTACTAATTTGTATTTTCTAATTTTTTTTTTTTTTTTTTTTAAATTCACTAGGGTTTTTCTCTCTTTGACATTTAAACAAGAACACAAAGTAATCTGGAAATACAATTTCCAATGTCTTTTAAAGATAATGTTTTTATATAAGTTGTGTGTTCTCACTAGTTTTTTCTTCTTGAGGTAATGTATTAAT	0.11
CTGAAAGACTGGCGTAACATGATGAAGAAGGAGGTATTCTGGACCATGTAAAGGACAGCGGATTGCTAAGGTCAACATTTAATGAGTCAGAAAGTCATTTAGAGATGAGTTTGGAATAGTAGGGTCTGGAGATGACGGAAGAGCTGGAATGAATGTTAAACTCAAAAGTGTCAACTCCCATAGGCAGTGGGCA	0.00882

Series 2
Target: RNA binding protein fox-1 homolog 2, RRM domain, GST-SBP tag (RBFOX2, Homo sapiens, UniProt O43251-10, residues 100-194)
Method: RNA Bind-n-Seq
Form: RNA
Sample: in vitro
Concentration: 365 nM
Notes: natural RNA segment, single round, ends assumed
Relative to: no-protein control
Reading: higher = stronger binding
All sequences stand within: GGGAGUUCUACAGUCCGACGAUC … UGGAAUUCUCGGGUGCCAA
Residues (chain): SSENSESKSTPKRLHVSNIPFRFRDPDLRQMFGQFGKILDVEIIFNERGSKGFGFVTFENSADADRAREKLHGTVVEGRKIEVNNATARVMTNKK
Oligonucleotide	RBNS enrichment (R)
GACUCUAUAUAGCUGAUCAGUUUUUUCACCUGGAAGCAUUUGUUUCUACUUUGAUAUGACUGUUUUUCGGACAGUUUAUUUGUUGAGAGUGUGACCAAAAGUUACAUGUU	0.427
AUAGAGCCUUCAGUUUGCCAUUACCCACUGUGGUCUGCUUUUCAGCCUAGCAAUUUGAGCUCUCAGCAGUGAGAAGACCCCGCCCUGCCUUCAUUAGAGCUAUCAAUACU	0.492
AACCAAAGGCCAAACUGAGGCUGCCCUGAGUUGGAAGACCACUUUCUGAAAUGCCCAUGGACUCUGCCUCCCAACCAUUCGUCUCUCACUCCUAGCAGAGCUGUCUGUGC	0.34
CUUAGAUUGGGUUUAUAACUAUUAGGAAUCACUGCACAGUUUAUUUGGGUUGUGUUUUGUGUCUGAGUCCCCUCCCUCAUCCCUUAGGGUCCAGAAGAGCAAUGGAGGAA	0.435
UCAUUAUAUUUCAUGUUUGACCAUUUGACUAACCAGCAGGCUUGGAGUUGAAUAGCUUUUGCUUUGCAACACUAAUCCUCACACUUAAAAUGAUUCCAUUAAUCUUACUC	0.323

Series 3
Target: Histone acetyltransferase KAT6A, both winged helices, GST fusion (KAT6A, Homo sapiens, UniProt Q92794, residues 1-181)
Method: protein binding microarray
Form: double-stranded DNA, one strand shown
Sample: in vitro
Concentration: not given
Notes: 8-mer, flanks averaged, mean of 2 arrays, mostly near background
Relative to: not given
Reading: higher = stronger binding
Construct (chain): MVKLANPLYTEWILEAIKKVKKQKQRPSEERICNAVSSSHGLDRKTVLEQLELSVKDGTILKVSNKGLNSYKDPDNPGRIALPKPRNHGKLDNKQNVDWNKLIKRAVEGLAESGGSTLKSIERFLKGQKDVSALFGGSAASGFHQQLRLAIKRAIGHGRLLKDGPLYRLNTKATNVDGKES
Oligonucleotide	E-score
AGCATCGA	-0.123
CGGCTCAC	0.16
ACACTACA	-0.0804
AGAACCTG	-0.208
CATGTTAA	-0.00691
CCAGCACA	-0.191

Further values, each from its own experiment
Substance	target	test	system	conditions	how to read	quantity	result
PhoQ, residues 284 288 289 292 302 303 TNASYF	PhoP, residues 12 14 15 18 19 NQGLL (Escherichia coli, UniProt P23836)	Sort-seq, refers to: YFP reporter	E. coli	PhoQ-PhoP variant library, added: 10 µM Mg2+	relative to: high Mg2+ state, higher = stronger signaling	fold induction	5.01
